# Measured values pooled from the literature.
# Numbered parts are unrelated; each lists some results of a single study. Substitutions count along the parent as printed.

# Sample 1
# Target: RNA binding protein fox-1 homolog 2, RRM domain, GST-SBP tag (RBFOX2, Homo sapiens, UniProt O43251-10, residues 100-194)
# Method: RNA Bind-n-Seq
# Form: RNA
# Sample: in vitro
# Concentration: 365 nM
# Notes: natural RNA segment, single round, ends assumed
# Relative to: no-protein control
# Reading: higher = stronger binding
# Construct (chain): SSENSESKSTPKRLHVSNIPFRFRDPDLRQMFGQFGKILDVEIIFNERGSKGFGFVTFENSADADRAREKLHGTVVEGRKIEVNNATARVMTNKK
Oligonucleotide,RBNS enrichment (R)
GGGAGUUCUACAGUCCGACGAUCAGGGCCUGACUUGAGCCACUCCUUCCUUCAGGACUCUGCGGGAGGCUGGGGCCCCAUCUUGAUCUUUGAGCCCAUUCUUCUGGGUGUGCUUUUUGGGACCAUCACUGAGAUGGAAUUCUCGGGUGCCAA,0.242
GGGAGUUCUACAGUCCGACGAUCCUGGAGAGUCCAGUUAAGGUAACCCAGAUUUUUGACAACCGCCUUCCUGCUGAGCCAAAGUUUUCUCAUUACCCCUCCACUGGGGAAGCAGCUGAGGCCCAGGGCCUUGCUGGAAUUCUCGGGUGCCAA,0.293
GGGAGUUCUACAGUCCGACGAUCCUUGUAUUUAUUUCAAGGAAACCAAUGAAUUCUAGGUAGUAUAUUACAAGUUGGUCAAAAUAUUCCAUGUACAAAUAGGGCUUCUGUGUCCAUAGCCUUGUAAGAGAUACUGGAAUUCUCGGGUGCCAA,0.616
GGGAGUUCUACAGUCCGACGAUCAUAGCUCUCUGCCCUGAUGUGUGGGGGAACUAGGAAGAAGUCCUUUGACCUCACCAGGCCUCAUGCUUCCCUUUAAUGUAAAGGGAAGGGGUUUGCCCACUUUCCUCUUUUGGAAUUCUCGGGUGCCAA,0.847
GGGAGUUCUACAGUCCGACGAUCUUAGUAGCCACUAGACAACCACCCUUUCUGAAAGCAAACAGUGCUGCUCUUUAUUCCAGACAAGGCAGGAAAGUCUGAGUUGGGAGUGACAGUGGCUGGAGAGAAGCAGAUGGAAUUCUCGGGUGCCAA,0.375
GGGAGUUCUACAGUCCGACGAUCUCCACCCAUCUCAGCCUCCCAAAGUGCUGGGAUUACAGGCGUGAGCCACCAUGCCCGGCCCAUAAGUACCGUUUUUGAGGUUCAGUCUUAAACAUUUGCUUUAAGAAAACUGGAAUUCUCGGGUGCCAA,0.345
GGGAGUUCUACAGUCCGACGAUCCGCUCCUCACCAGUGGGUUUUCUUUAUUUAUGAAUUGAUCUGAUUUCUCAACCUCAUUUGAACUAAAAAACAAGACCAUGAACAUUAAAAGAUUGCAUUUACCUUUUCAGUGGAAUUCUCGGGUGCCAA,0.52
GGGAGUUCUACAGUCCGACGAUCGAAGAGAACCUUGUGCUGAGGUAAUGGCCUCCCACUGCCGCCUGAGUGCUGAAAUGAGCUUGAGGUGUUCUUCAAAGCCAGUGUCACUGUGUGGGUCACUGUGAGGUGACUGGAAUUCUCGGGUGCCAA,0.371

# Sample 2
# Target: Ras GTPase-activating protein-binding protein 1, full length (G3BP1, Homo sapiens, UniProt Q13283)
# UniProt Q13283, sequence (whole entry, looked up): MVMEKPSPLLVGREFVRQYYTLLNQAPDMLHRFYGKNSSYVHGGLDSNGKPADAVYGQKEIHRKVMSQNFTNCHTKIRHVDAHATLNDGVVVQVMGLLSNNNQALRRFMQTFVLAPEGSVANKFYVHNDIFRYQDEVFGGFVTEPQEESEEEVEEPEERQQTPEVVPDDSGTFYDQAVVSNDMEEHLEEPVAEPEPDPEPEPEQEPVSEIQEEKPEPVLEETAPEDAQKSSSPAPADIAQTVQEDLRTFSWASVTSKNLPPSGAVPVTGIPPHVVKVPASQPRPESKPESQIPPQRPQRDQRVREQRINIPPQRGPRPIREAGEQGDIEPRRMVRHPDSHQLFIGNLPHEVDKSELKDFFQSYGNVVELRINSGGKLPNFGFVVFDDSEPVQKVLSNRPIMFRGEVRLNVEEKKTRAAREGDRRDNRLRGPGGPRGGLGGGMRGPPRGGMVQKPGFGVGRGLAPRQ
# Method: RNA Bind-n-Seq
# Form: RNA
# Sample: in vitro
# Concentration: 200 nM
# Notes: whole 134-nt RNA, ends assumed
# Together with: 150 mM KCl
# Relative to: input library
# Reading: higher = stronger binding
Oligonucleotide,log2 enrichment
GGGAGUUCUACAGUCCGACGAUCGUCCUGUGCUACACAUCGUAUGUACCGAAUCAAAUUUUUAAACCCAAAUUUUUUUAAAAAAGUAUUAUGUUACGCCGUUCGGAUCUGCACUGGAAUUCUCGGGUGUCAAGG,-0.474
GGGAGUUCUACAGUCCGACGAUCUGGCCCUGGUGGCAUGCGGGGACGAAGAGGUGGCCUCAUGGAUCGUGGUGGUCCCGGUGGAAUGUUCAGAGGUGGCCGUGGUGGAGACAGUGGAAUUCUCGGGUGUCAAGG,0.107
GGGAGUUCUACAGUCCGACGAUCCCUGUGCUACACAUCGUAUGUACCGAAUCGGGUUUUUUUGGGUUUUUUUGGGUUUUUUUGGAAAGUAUUAUGUUACGCCGUUCGGAUCUGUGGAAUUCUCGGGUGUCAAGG,-0.732
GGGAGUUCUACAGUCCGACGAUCGUCCUGUGCUACACAUCGUAUGUACCGAAUCGGGGAAAAAGGAAAAAGGGAAAAAGGGAAAGUAUUAUGUUACGCCGUUCGGAUCUGCACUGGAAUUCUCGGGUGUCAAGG,-0.566
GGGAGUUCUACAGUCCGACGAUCUCCUCAAGUCCUGUGCUACACAUCGUAUGUACCGAAUCGGAAAGGAGGUGGAAAGUAUUAUGUUACGCCGUUCGGAUCUGCACUUCCAGCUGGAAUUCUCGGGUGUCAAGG,-0.745
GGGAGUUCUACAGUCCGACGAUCCACAGACAACACGCACCCACACAGACACAGAGGGAAGGGGUUGGGAUGGGGACAGGGUGCACAGCAGGGCGAAAUAGGACCCCAGCCCCUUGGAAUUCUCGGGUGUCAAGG,1.96
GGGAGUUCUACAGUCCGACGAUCUGGCCCUGGUGGCAUGCGGGGAGGAAGAGGUGGCCUCAUGGAUCGUGGUGGUCCCGGUGGAAUGUUCACAGGUGGCCGUGGUGGAGACAGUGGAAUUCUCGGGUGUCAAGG,0.0145
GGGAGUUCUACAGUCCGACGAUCCACAGAAAACACGCACCCACACAGACACAGAGGGAAGGGGUUGGGAUGGGGACAGGGUGCACAGCAGGGCGGGGUAGGACCCCAGCCCCUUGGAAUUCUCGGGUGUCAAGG,1.74
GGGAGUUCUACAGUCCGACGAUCCAAGUCCUGUGCUACACAUCGUAUGUACCGAAUCGGGAAAGGAAAGGGAAAGGGGAAAGUAUUAUGUUACGCCGUUCGGAUCUGCACUUCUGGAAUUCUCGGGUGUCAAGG,0.032

# Sample 3
# Target: Phosphate system positive regulatory protein PHO4, full length, GST-tagged (PHO4, Saccharomyces cerevisiae, UniProt P07270, residues 1-312)
# UniProt P07270, sequence (whole entry, looked up): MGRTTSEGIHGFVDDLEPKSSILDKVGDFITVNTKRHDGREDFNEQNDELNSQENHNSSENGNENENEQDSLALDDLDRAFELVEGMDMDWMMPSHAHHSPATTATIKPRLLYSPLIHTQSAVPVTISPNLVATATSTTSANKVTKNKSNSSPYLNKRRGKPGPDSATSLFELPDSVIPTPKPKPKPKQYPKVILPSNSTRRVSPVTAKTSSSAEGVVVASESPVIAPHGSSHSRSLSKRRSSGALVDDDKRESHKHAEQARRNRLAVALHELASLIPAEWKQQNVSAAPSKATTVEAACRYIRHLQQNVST
# Method: competition protein-binding microarray
# Form: double-stranded DNA, one strand shown
# Sample: in vitro
# Concentration: 2 µM
# Notes: whole 60-bp probe, lowest competitor level
# Together with: Cbf1 competitor, 0.05 µM
# Reading: higher = stronger binding
Oligonucleotide,fluorescence intensity [a.u.]
AAATCGGAGGTTTCACACGTAATTACATAAAGAAGAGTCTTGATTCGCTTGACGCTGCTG,4760
AAAGCGGTAATTTTTCACGTGGGGTCAAATATCTATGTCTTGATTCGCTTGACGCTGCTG,18000
CATACCCAACCTTGACGAGTGGGTGAAGATATTTGTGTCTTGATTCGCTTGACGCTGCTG,4730
ACAGTTTCCCACTGTCACACTTCACTGTTGCATACTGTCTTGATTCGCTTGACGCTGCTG,5580
CTAACGAAGGTTTGCCGTGTGGGTGACAAGCCAAGTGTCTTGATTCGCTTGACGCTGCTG,5400
TCACTCATTCTAAAACCCGTGATGGCGCATCATACTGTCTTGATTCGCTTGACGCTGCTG,7870
TGCGCAACAACTTTGCACGTGTTTTTATGTCTAGAAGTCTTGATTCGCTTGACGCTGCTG,18800
TACTGCTCCAGGGGTGACTTGATGTCCTCTGCTGGGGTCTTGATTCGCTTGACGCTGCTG,3210
CGTCCTAGTGATTTTCACGTGGCATCCATGAGGAAGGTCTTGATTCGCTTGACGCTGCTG,13300
TACTTAATAATCGACCACGTTTCAAATTCAATAATGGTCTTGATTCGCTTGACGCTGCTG,13200
ACATATTTTAGAAAACACGTGAAGGATACGTAAATAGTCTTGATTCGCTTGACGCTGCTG,15600
ATACTGTTGTATTTCCGCGTGAAGCCACTTTTAACCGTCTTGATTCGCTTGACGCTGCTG,5680
CGGTGGAGTATTTCACACGTTATGTCGCTGGTTTGCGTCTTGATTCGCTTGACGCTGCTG,6310
CGGGGTTAAGTTTTTCACGTGGCGTGCCGTCGGCAGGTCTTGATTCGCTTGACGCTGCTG,10700
TGCGCAACAACTTGTGACGTGGGTGTATGTCTAGAAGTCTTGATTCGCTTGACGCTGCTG,6360
CTTCTGTAAATTTGTCACTCCACTTGACGCGCCCCGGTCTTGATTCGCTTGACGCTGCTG,4200

# Sample 4
# Target: CCNE1, cyclin fold, Cln2 fusion (human)
# Method: yeast growth competition, sequencing
# Sample: yeast
# Notes: weak parent motif
# Relative to: not given
# Reading: higher = stronger binding
# Parent: CABLES2 docking peptide (human); ICAKRSLCAAFSV
Variant,normalised enrichment score
F11A,-0.0562
I1A,-0.0197
C2A,0.346
S12A,0.592
K4A,0.226

# Sample 5
# Target: Sal-like protein 4, full length isoform B (SALL4, Homo sapiens, UniProt Q9UJQ4-2, residues 1-616)
# Method: universal PBM
# Form: double-stranded DNA, one strand shown
# Sample: in vitro
# Concentration: not given
# Notes: 8-mer, flanks averaged, mean of replicates
# Reading: higher = stronger binding
# Construct (chain): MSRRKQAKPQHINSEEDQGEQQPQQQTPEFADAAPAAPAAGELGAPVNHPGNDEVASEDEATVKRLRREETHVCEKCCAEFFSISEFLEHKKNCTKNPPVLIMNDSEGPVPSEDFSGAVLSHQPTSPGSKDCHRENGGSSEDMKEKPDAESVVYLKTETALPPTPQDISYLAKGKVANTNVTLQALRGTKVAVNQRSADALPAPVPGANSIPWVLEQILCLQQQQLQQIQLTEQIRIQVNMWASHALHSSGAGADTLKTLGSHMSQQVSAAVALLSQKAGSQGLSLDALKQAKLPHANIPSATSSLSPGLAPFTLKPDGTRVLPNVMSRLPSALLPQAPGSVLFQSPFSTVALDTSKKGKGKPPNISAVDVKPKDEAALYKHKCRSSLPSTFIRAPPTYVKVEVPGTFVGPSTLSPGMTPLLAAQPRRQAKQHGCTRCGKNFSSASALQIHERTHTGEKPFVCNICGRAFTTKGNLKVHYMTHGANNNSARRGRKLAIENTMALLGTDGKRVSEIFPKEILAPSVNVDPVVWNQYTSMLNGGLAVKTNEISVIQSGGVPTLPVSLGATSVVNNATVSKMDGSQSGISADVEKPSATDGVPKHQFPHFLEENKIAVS
Oligonucleotide,E-score
AACAGGGT,-0.0892
GATTAGGA,0.0543
AAGGGAAG,0.153
AAGGAAGA,0.00198
GCCCAGGA,-0.262
GGAAGCAC,-0.0929
CGACACGA,-0.109
AGCTTTGG,-0.127
AGAATCGG,-0.135
CGCTTCCA,-0.189
AATCTCGT,0.0348
CTAGATCC,-0.125
CAGAAAGA,0.119
ACGGGATG,-0.21
CGTATCTA,-0.0102
ACAGAATG,0.0459
AATGCCAC,-0.00503
ATATTTAA,0.448
GAACTGAC,-0.249
GCACAAAA,0.168
TCAATTGA,0.184
TAAGCTTA,0.101
AAGCTACT,2e-05
GAAAGAAA,0.16

# Repeated from above (sample 5):
Oligonucleotide,E-score
ACAGAATG,0.0459
AATGCCAC,-0.00503
ATATTTAA,0.448
GAACTGAC,-0.249
GCACAAAA,0.168
TCAATTGA,0.184
TAAGCTTA,0.101
AAGCTACT,2e-05
